Assay results collected from several papers.
Each line is one published result; not all experiments were run side by side. Values joined by “and” are separate records of one study, mostly repeats; a detail may differ. ± marks the error that the study gave.

Compound	assay	test system	conditions	scale	quantity	value
CC1(C)CCC(CN2CCN(c3ccc(C(=O)NS(=O)(=O)c4ccc(NCC5CCOCC5)c([N+](=O)[O-])c4)c(Oc4cnc5[nH]ccc5c4)c3)CC2)=C(c2ccc(Cl)cc2)C1	cell kill, PI exclusion flow cytometry	nodal neoplastic cells, human	24 h		EC50	3.5 nM
CCOc1c([C@H](C)n2nc(C)c3c(N)ncnc32)cc(Cl)c(F)c1[C@@H]1CNC(=O)C1	Olink proximity extension proteomics, measured: IL12A	human FL or MZL patients, plasma	dose not given, week 8	relative to: baseline	plasma protein level change	-48%
Cn1cc(Nc2nccc(-c3ccc4c(c3)CN(C3COC3)CC[C@H]4NC(=O)c3cn(C(C)(C)C)nn3)n2)cn1	measured: non-small cell lung cancer	splenic B cells, mice	30 mg/kg, IgD-activated in vivo	relative to: vehicle, direction not given	pathway activation z-score	2.11
OC(CCN1CCCCC1)(c1ccccc1)C1CC2C=CC1C2 (stereo not drawn)	resting-state EEG	healthy elderly humans	oral, 2 mg, eyes open, LS mean	relative to: baseline	change, Theta power, EEG Pz-O2	11.8%
COc1cc(Nc2ncc3c(n2)-c2ccc(Cl)cc2C(c2c(F)cccc2OC)=NC3)ccc1C(=O)O		mouse, OS-1 osteosarcoma xenograft	5.2 mg/kg	direction not given	median response score	2
Cc1n[nH]c2ccc(-c3cc(OC[C@@H](N)Cc4ccccc4)cnc3-c3ccoc3)cc12	kinase binding, competitor, MIB/MS competition, measured: RIM8	Candida albicans cell lysate	1 µM	relative to: DMSO	log2 fold change	-0.122
CCN(CC)CCNC(=O)c1cc(S(C)(=O)=O)cnc1OC.Cl	catalepsy, bar test	female CD-1 mice	intraperitoneal, 200 mg/kg, 90 min, maximum 1 min		time on bar	1.96 s
Cc1cc(Nc2ccc(S(F)(F)(F)(F)F)cc2)n2nc(C(C)(F)F)nc2n1	measured: dihydroorotate	female CD-1 mice, blood	oral, 300 mg/kg daily, 8 h after dose 10		DHO concentration	1.94 ± 0.204 µM
COc1ncc(-c2nc3c(n2C(C)C)[C@H](c2ccc(Cl)cc2)N(c2cc(Cl)cn(C)c2=O)C3=O)c(OC)n1	International Working Group criteria	human acute myeloid leukemia patients	oral, 350 to 400 mg, response Unknown, high-dose, other doses		best overall response	0%
C[C@@H](NC(=O)N1C(=O)[C@H](Cc2ccnc(N)c2)[C@H]1C(=O)O)C1CCCCC1		human	iv infusion, 1.5 mg/kg/h, 24 h	relative to: baseline	time to aPTT Emax	72 h
O=C(O)CNC(=O)Cc1ccccc1		ventricular cardiomyocytes, C57BL/6 mouse	dose not given, 0.028 s		sarcomere length	1.72 µm
N#Cc1ccc2c(c1)[C@H]1CCCN(C(=O)c3ccc4[nH]cnc4c3)[C@H]1C2		human, urine	80 mg, 336 h, day 14 over day -1	relative to: placebo and baseline	total urinary corticosteroids	110 % change
COc1nnc2ccc(N3CCC(c4ccc(OCCN5CCN(C)C(=O)[C@H]5C)cc4)CC3)nn12		mice	0.038 mg/kg		time HEXIM1 above threshold	3.7 h
C[C@@H](O)CCOC(=O)C[C@@H](C)O		human	oral drink, dose not given, 60 min post dose, median, all participants		plasma insulin	1120 pg/mL
CN[C@@H]1COc2c(S(=O)(=O)NC(=O)Nc3c4c(cc5c3CCC5)CCC4)cnn2C1	measured: IL-18	human participants, whole blood ex vivo	150 mg single dose, 336 h, IL-18, circulating, adjusted for, added: LPS/ATP	relative to: baseline	inhibition	13.7%
NC(=O)c1cnc2[nH]ccc2c1N[C@@H]1[C@@H]2CC3C[C@H]1C[C@@](O)(C3)C2	CD4+ effector T cells, flow cytometry	Japanese humans, peripheral blood	20 mg single dose	relative to: baseline	percent change	0.05%
Cn1cc(Nc2nc(N)nc(-c3cccc(-n4ccc5cc(C6CC6)cc(F)c5c4=O)c3CO)n2)cn1	CD63 upregulation, anti-IgE-induced	human, multiple ascending dose, whole blood basophils ex vivo	150 mg twice daily, day 14, 12 h		inhibition	76.1%
CCO[C@H]1CCN(Cc2c(OC)cc(C)c3[nH]ccc23)[C@H](c2ccc(C(=O)O)cc2)C1		PNH patients, blood	oral, 25 mg then 100 mg, week 4, mean absolute change	relative to: baseline	PNH RBC clone size	30.4%
CC[C@H](CO)Nc1nc(NCc2ccc(-c3ccccn3)cc2)c2ncn(C(C)C)c2n1		NOD scid gamma mouse, IMR-32 xenograft, tumour	ip, dose not given, daily dosing		Mcl-1 protein level	decreased
O=C1Nc2cc3[nH]nc(-c4ccncc4)c3cc2CN1Cc1ccccc1	RECIST v1.1	human, relapsed or refractory advanced solid tumours	intravenous, 4.8 mg/kg, pooled schedules		partial response, best response	0%

Compound	assay	test system	conditions	scale	quantity	value
N#CCC1CCN(c2nc(Nc3ccc(N4CCC(O)CC4)cc3)c3c(=O)[nH]ncc3n2)CC1	Olink multiplex, measured: CD163	human, serum	20 mg, day 29	relative to: baseline	fold change from baseline	-1.2
COc1cccc2c1C(=O)c1c(O)c3c(c(O)c1C2=O)C[C@@](O)(C(=O)CO)C[C@@H]3O[C@H]1C[C@H](N)[C@H](O)[C@H](C)O1	measured: metastatic burden and inflammation	metastases, lung, MDA-MB-231-Luc-GFP, NSG mice xenograft, lung	3 mg/kg, 1 week after three weekly doses	direction not given	histopathological score	3
O=C(OC(C(F)(F)F)C(F)(F)F)N1CCN(Cc2cccc(Oc3ccccc3)c2)CC1	PET blocking study	rhesus monkey, brain HIP	0.01 mg/kg, compound pretreatment, added: [18F]T-401 tracer		k3	0.102 min⁻¹
NCC(=O)Nc1cncc(-c2nn3c(=O)cc(N4CCNCC4)nc3s2)c1	ADP-induced platelet aggregation, light transmission aggregometry	human, stable CAD on aspirin, ex vivo platelets	subcutaneous, 0.05 mg/kg, 90 min post-dose, median value, added: ADP 20 µM		inhibition	31.9%
CC(C)NCC(O)c1ccc(O)c(O)c1 (stereo not drawn)		ventricular cardiomyocytes, C57BL/6 mouse	dose not given, 0.076 s		sarcomere length	1.72 µm
O=C(COc1ccc(Cl)cc1)NC12CC(c3nnc([C@H]4C[C@@H](OC(F)(F)F)C4)o3)(C1)C2		healthy human, PBMC	oral, 200 mg single dose, day 1, 4 h post-dose, median, added: sodium arsenite ex vivo	relative to: baseline	ATF4 protein change	-48.9%
C=CCn1c(=O)c2cnc(Nc3ccc(N4CCN(C)CC4)cc3)nc2n1-c1ccc2c(n1)[C@@](O)(CC)CC2		ZR-75-1 xenograft, BALB/c nude mice	oral, 80 mg/kg, day 28, once daily days 0-21 and 25-27		tumour volume difference	392 ± 19.8 mm3
COc1ccccc1[C@H](Cn1c(=O)n(C(C)(C)C(=O)O)c(=O)c2c(C)c(-c3ncco3)sc21)OC1CCOCC1	[1-13C]acetate infusion, isotopomer analysis	overweight or obese healthy men, plasma VLDL-TG palmitate	oral, 20 mg single dose, 8 h post-dose, added: oral fructose		fractional hepatic DNL	16.5 % new palmitate
N#Cc1ccc2c(-c3ccncc3)c(-c3ccc(F)cc3)nn2c1	kinase binding, competitor, MIB/MS competition, measured: SSK2	Candida albicans cell lysate	100 nM	relative to: DMSO	log2 fold change	0.0292
Cc1nn(-c2nc3c(F)cc(F)cc3s2)c(O)c1C(c1ccc(C(F)(F)F)cc1)c1c(C)nn(-c2nc3c(F)cc(F)cc3s2)c1O		mouse, cerulein-induced acute pancreatitis, serum	25 mg/kg, 192 h		lipase activity	15.6 mOD/min and 69.9 mOD/min and 76.7 mOD/min and 78.4 mOD/min and 23.9 mOD/min
O=C(O)C1=CC(=C(c2ccc(O)c(C(=O)O)c2)c2ccc(O)c(C(=O)O)c2)C=CC1=O	immunohistochemistry, measured: F4/80	C57BL/6J mouse MC-38 tumour, tumour core and margin	peritumoral, dose not given	relative to: vehicle	macrophage infiltration	decreased
N#Cc1ccn2c(-c3ccncc3)c(-c3ccc(F)cc3)nc2c1	kinase binding, competitor, MIB/MS competition, measured: FPK1	Candida albicans cell lysate	100 nM	relative to: DMSO	log2 fold change	-0.131
O=C(Nc1cccnn1)N1CCC(=Cc2cccc(Oc3ccc(C(F)(F)F)cn3)c2)CC1	mechanical and thermal hyperalgesia	mouse CFA arthritis	oral, 2 h	relative to: vehicle	effective dose	3 to 30 mg/kg
CC[C@H](C)[C@H](NC(=O)[C@H](CCC(=O)O)NC(=O)[C@H](CO)NC(=O)[C@@H](NC(=O)[C@@H](N)CO)C(C)C)C(=O)N[C@@H](CCC(N)=O)C(=O)N[C@@H](CC(C)C)C(=O)N[C@@H](CCSC)C(=O)N[C@@H](Cc1c[nH]cn1)C(=O)N[C@@H](CC(N)=O)C(=O)N[C@@H](CC(C)C)C(=O)NCC(=O)N[C@@H](CCCCN)C(=O)N[C@@H](Cc1c[nH]cn1)C(=O)N[C@@H](CC(C)C)C(=O)N[C@@H](CC(N)=O)C(=O)N[C@@H](CO)C(=O)N[C@@H](CCSC)C(=O)N[C@@H](CCC(=O)O)C(=O)N[C@@H](CCCNC(=N)N)C(=O)N[C@H](C(=O)N[C@@H](CCC(=O)O)C(=O)N[C@@H](Cc1c[nH]c2ccccc12)C(=O)N[C@@H](CC(C)C)C(=O)N[C@@H](CCCNC(=N)N)C(=O)N[C@@H](CCCCN)C(=O)N[C@@H](CCCCN)C(=O)N[C@@H](CC(C)C)C(=O)N[C@@H](CCC(N)=O)C(=O)N[C@@H](CC(=O)O)C(=O)N[C@H](C(=O)N[C@@H](Cc1c[nH]cn1)C(=O)N[C@@H](CC(N)=O)C(=O)N[C@@H](Cc1ccccc1)C(N)=O)C(C)C)C(C)C	measured: blood Ca2+	female CD1 mice	subcutaneous, 40 nmol/kg		time to maximum blood calcium	~1 h
C[C@H](Oc1ccc(Br)cc1-c1ccon1)C(=O)O	mean CMAP amplitude	human, tibialis anterior muscle	200 mg, SAD		difference from placebo	0.043 mV
C[C@H]1C[C@H]2CSC(N)=N[C@@]2(c2nc(NC(=O)c3ccc(OC(F)F)cn3)cs2)CO1	measured: Aβx-40	healthy adults, plasma	540 mg single dose, 24 h post-dose	relative to: placebo	percent change from baseline	-72.2%
CC(=O)NCC(=O)NCC(=O)N[C@H](C(=O)N[C@@H](Cc1ccc(O)cc1)C(=O)N[C@@H](CO)C(=O)N[C@H]1CSSC[C@@H](C(=O)N[C@@H](CCCNC(=N)N)C(=O)N2CCC[C@H]2C(=O)N[C@@H](CCC(N)=O)C(=O)N[C@@H](CCCNC(=N)N)C(=O)NCC(=O)NCCC(=O)N[C@@H](CCCCNC(=O)CN(CC(=O)NCCCC[C@H](NC(=O)CCNC(=O)CNC(=O)[C@H](CCCNC(=N)N)NC(=O)[C@H](CCC(N)=O)NC(=O)[C@@H]2CCCN2C(=O)[C@H](CCCNC(=N)N)NC(=O)[C@@H]2CSSC[C@H](NC(=O)[C@H](CO)NC(=O)[C@H](Cc3ccc(O)cc3)NC(=O)[C@@H](NC(=O)CNC(=O)CNC(C)=O)[C@@H](C)O)C(=O)N[C@@H](Cc3c[nH]cn3)C(=O)N[C@@H](Cc3ccccc3)C(=O)NCC(=O)N[C@@H](C)C(=O)N[C@@H](CC(C)C)C(=O)N[C@@H]([C@@H](C)O)C(=O)N[C@@H](Cc3c[nH]c4ccccc34)C(=O)N[C@@H](C(C)C)C(=O)N2)C(N)=O)C(=O)CCN)C(N)=O)NC(=O)[C@H](C(C)C)NC(=O)[C@H](Cc2c[nH]c3ccccc23)NC(=O)[C@H]([C@@H](C)O)NC(=O)[C@H](CC(C)C)NC(=O)[C@H](C)NC(=O)CNC(=O)[C@H](Cc2ccccc2)NC(=O)[C@H](Cc2c[nH]cn2)NC1=O)[C@@H](C)O		healthy BALB/c mice	subcutaneous, 0.08 mg/kg, 14 d, single dose		haematocrit	47.1%
CC[C@@H]1[C@H](F)C(=O)N[C@@H]1COc1nccc2cc(C(N)=O)c(OC)cc12	ATP-site probe binding, ActivX profiling, measured: SRPK1, SRPK2	THP-1 cell lysate	0.04 mM, Lys1 site		inhibition	-23%
COc1nc(-c2cc(C)c(N[C@@H](C)c3cc(F)cc(F)c3)nn2)ccc1-n1cnc(C)c1	measured: Aβ38	rat Sprague-Dawley male, CSF	oral, 25 mg/kg daily for 9 days, 4 h after dose	relative to: vehicle	change in level	62%

Repeated from above:
Compound	assay	test system	conditions	scale	quantity	value
CC(=O)NCC(=O)NCC(=O)N[C@H](C(=O)N[C@@H](Cc1ccc(O)cc1)C(=O)N[C@@H](CO)C(=O)N[C@H]1CSSC[C@@H](C(=O)N[C@@H](CCCNC(=N)N)C(=O)N2CCC[C@H]2C(=O)N[C@@H](CCC(N)=O)C(=O)N[C@@H](CCCNC(=N)N)C(=O)NCC(=O)NCCC(=O)N[C@@H](CCCCNC(=O)CN(CC(=O)NCCCC[C@H](NC(=O)CCNC(=O)CNC(=O)[C@H](CCCNC(=N)N)NC(=O)[C@H](CCC(N)=O)NC(=O)[C@@H]2CCCN2C(=O)[C@H](CCCNC(=N)N)NC(=O)[C@@H]2CSSC[C@H](NC(=O)[C@H](CO)NC(=O)[C@H](Cc3ccc(O)cc3)NC(=O)[C@@H](NC(=O)CNC(=O)CNC(C)=O)[C@@H](C)O)C(=O)N[C@@H](Cc3c[nH]cn3)C(=O)N[C@@H](Cc3ccccc3)C(=O)NCC(=O)N[C@@H](C)C(=O)N[C@@H](CC(C)C)C(=O)N[C@@H]([C@@H](C)O)C(=O)N[C@@H](Cc3c[nH]c4ccccc34)C(=O)N[C@@H](C(C)C)C(=O)N2)C(N)=O)C(=O)CCN)C(N)=O)NC(=O)[C@H](C(C)C)NC(=O)[C@H](Cc2c[nH]c3ccccc23)NC(=O)[C@H]([C@@H](C)O)NC(=O)[C@H](CC(C)C)NC(=O)[C@H](C)NC(=O)CNC(=O)[C@H](Cc2ccccc2)NC(=O)[C@H](Cc2c[nH]cn2)NC1=O)[C@@H](C)O		healthy BALB/c mice	subcutaneous, 0.08 mg/kg, 14 d, single dose		haematocrit	47.1%
CC[C@@H]1[C@H](F)C(=O)N[C@@H]1COc1nccc2cc(C(N)=O)c(OC)cc12	ATP-site probe binding, ActivX profiling, measured: SRPK1, SRPK2	THP-1 cell lysate	0.04 mM, Lys1 site		inhibition	-23%
